Measured values collected from several papers.
Parts stem from different laboratories: compare values within a part only.

Sample 1
Target: PABPC1L2, full length, GST fusion (mouse, UniProt A0ABA7IW68)
Method: RNAcompete
Molecule type: RNA
Matrix: in vitro
Tested at: 20 nM
Notes: 7-mer, probes averaged, single round
Baseline: mean of 7-mers
Reading: higher = stronger binding
Residues (chain): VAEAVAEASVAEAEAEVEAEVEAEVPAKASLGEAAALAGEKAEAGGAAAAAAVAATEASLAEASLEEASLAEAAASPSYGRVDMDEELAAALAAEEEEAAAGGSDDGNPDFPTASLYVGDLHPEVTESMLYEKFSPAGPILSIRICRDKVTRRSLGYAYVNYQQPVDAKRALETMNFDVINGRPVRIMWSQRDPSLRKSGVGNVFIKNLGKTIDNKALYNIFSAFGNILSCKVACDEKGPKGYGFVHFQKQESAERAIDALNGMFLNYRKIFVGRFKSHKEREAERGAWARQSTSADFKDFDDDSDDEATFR
Sequence | 7-mer Z-score
CCAGUGC | -0.219
AAGUAGU | -0.0573
UCCUGCA | -0.186
UAUCUAA | -0.0518
AGUGUGC | -0.0536
UAACAAG | 0.0424
ACCCUUU | -0.208
CCUGGCU | -0.246
ACCUGAA | -0.079
GAAGUCA | -0.233
GCCGGGG | -0.0192
CACACGA | 0.00798
GCACGGC | -0.121
CCGCCAA | -0.325

Sample 2
Target: Prothrombin, mature alpha-thrombin (F2, Homo sapiens, UniProt P00734)
Method: aptamer microarray, sandwich
Molecule type: DNA with 2'F-ANA
Matrix: in vitro
Tested at: 200 nM
Notes: whole 15-mer aptamer, many near background
Together with: Cy3 exosite-II aptamer, 400 nM
Reading: higher = stronger binding
Sequence: GGTTGGTGTGGTTGG
Modification | mean fluorescence intensity [a.u.]
2'F-ANA at 1 4 7 8 10 12 15 | 61.3
2'F-ANA at 2 4 5 6 7 8 10 12 13 14 | 53.7
2'F-ANA at 1 3 4 5 6 9 11 15 | 52.1
2'F-ANA at 1 2 4 5 6 7 8 9 13 | 49.4
2'F-ANA at 1 2 3 7 8 11 13 14 | 111
2'F-ANA at 1 2 3 4 5 6 7 8 9 11 12 13 14 15 | 53.4
2'F-ANA at 1 6 9 10 12 13 15 | 76.4
2'F-ANA at 2 3 4 6 8 9 11 12 13 | 487
2'F-ANA at 4 5 6 8 10 11 13 14 | 44.8
2'F-ANA at 1 2 3 4 6 10 13 14 | 49.8
2'F-ANA at 1 4 6 8 9 11 12 | 195
2'F-ANA at 1 2 4 6 9 11 12 13 14 15 | 53.9
2'F-ANA at 2 5 8 9 15 | 78.5
2'F-ANA at 2 7 8 9 10 12 13 14 15 | 88.1
2'F-ANA at 3 5 8 11 14 15 | 59
2'F-ANA at 1 6 11 12 14 15 | 64.3
2'F-ANA at 1 2 3 5 9 12 14 15 | 44.7
2'F-ANA at 1 2 5 6 7 9 10 11 12 13 14 15 | 47.4
2'F-ANA at 1 3 5 7 8 9 10 12 14 | 49.5

Sample 3
Target: Histone acetyltransferase KAT6A, winged helix 2, GST fusion (KAT6A, Homo sapiens, UniProt Q92794, residues 85-181)
Method: protein binding microarray
Molecule type: double-stranded DNA, one strand shown
Matrix: in vitro
Tested at: not given
Notes: 8-mer, flanks averaged, mean of 2 arrays, mostly near background
Baseline: not given
Reading: higher = stronger binding
Residues (chain): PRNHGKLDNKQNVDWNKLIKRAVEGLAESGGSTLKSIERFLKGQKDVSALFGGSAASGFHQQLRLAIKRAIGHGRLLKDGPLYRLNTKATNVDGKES
Sequence | E-score
AACCGAGA | 0.0218
CGCGCAAC | 0.0694
CAGCTTAA | 0.061
AAACGCTT | -0.168
ATTATCCC | -0.0292
GAAGTATC | 0.0565
ATACCATG | -0.11
ACTGGTCT | -0.0749
AACAATAT | 0.186
ATTCCTGG | -0.0959
AGCTAAAG | 0.00688
AACAAGGT | -0.099
AAAGATTA | 0.101
CACATCGG | -0.0262
AAAGCAGC | 0.171
GACTAGGA | -0.119
TACCGGTA | -0.319
AAGCGGAG | 0.123
GCGATTAC | -0.00579
CGACTGCC | -0.138
ACCCAAAC | 0.0968
GCAGCTGC | 0.231
GCGGGTGA | 0.182

Sample 4
Target: RNA binding protein fox-1 homolog 2, RRM domain, GST-SBP tag (RBFOX2, Homo sapiens, UniProt O43251-10, residues 100-194)
Method: RNA Bind-n-Seq
Molecule type: RNA
Matrix: in vitro
Tested at: 365 nM
Notes: natural RNA segment, single round, ends assumed
Baseline: no-protein control
Reading: higher = stronger binding
Construct (chain): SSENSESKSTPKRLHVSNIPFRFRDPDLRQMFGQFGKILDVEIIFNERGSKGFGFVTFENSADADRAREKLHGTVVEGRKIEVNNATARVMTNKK
Sequence | RBNS enrichment (R)
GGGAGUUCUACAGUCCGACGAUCAAUUGUAGUGUUGGCAAGCCCAAGCCACUCGUGCUAACUGCUUUUUGUCUCGGUUGCUAUUCCAAGAACAGAAGGAGGAAGUUGGCCAAUUACAGCGUGUGUGCAUGGAUUGGAAUUCUCGGGUGCCAA | 0.397
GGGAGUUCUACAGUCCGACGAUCUGACACUCACAGGGAGCCACUGUUCACUGACACUUGGAAGCGGUCAUUGUUAAUAUCACGGGCGUAACACUUUGAACGAUAUAGAGAUGCACAAACAGUUGAACUUAGAAUGGAAUUCUCGGGUGCCAA | 0.646
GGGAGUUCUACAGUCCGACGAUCCCCCACAUGUAUCACAUACUGUCAUAUUCCCACAUGUAUCACACAUGUAUUGUAAAAUUUUGUAGUUUUGAUCACUUGUGAAUUUACUGUUGAUGUGGUAGCCACCUGCUUGGAAUUCUCGGGUGCCAA | 0.328
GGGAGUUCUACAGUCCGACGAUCCUGUUGCUAUUUAGGACCAAAACAUUUUCAGACAGUAGGUAGGCUUUUACAUUCCCUUGCUCCGUUACCUAACGACUUAAACCAGUUCCUUGCUUCCCCCAUCCCUACACUGGAAUUCUCGGGUGCCAA | 1.21
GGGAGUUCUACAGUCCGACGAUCGAAUGUUACAAUGGUAAAAUGAGUGAUCUCAAAUCCACUGACAGAUAUAAAAUAGGCUUAGAGAGGAAAAGCUGCCUCUGGUCAAGUAGAUCAUGGCAGCAUGAAUUCCAUGGAAUUCUCGGGUGCCAA | 0.325
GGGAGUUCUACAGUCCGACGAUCUGACCCACCCCUUCCUGGAUCACUCCUUUGCACUCCACUCCCCUCGUUCUGUCACUUUGAACGAAGUCUGAGUGAGGCUAGUGACUCCUUGGGUGUCCUCAACAGUGAAUUGGAAUUCUCGGGUGCCAA | 0.364
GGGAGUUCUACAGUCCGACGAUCCCUGGAAUAUUAGAUGGAAAGCUUCACAUUAGCAUUUUGUGCAUAAUGAUAGAAACAGAUUCUGAUAAUACAAGGGGAGGGUCUAGGUACUCUUUAAGUGAUAGAAUAUGUGGAAUUCUCGGGUGCCAA | 0.406
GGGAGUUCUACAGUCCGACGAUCGGCCACGUGCUUCUAUGUGGUGUUUGACUCUGUACAAAUUCUAGUCCCAAAGAUCAAGUUGUCUGAAGGAGCCAAAGUGUGAAUGUGGGUGUCGGCUGCGGCAUUAAAUUUGGAAUUCUCGGGUGCCAA | 1.38
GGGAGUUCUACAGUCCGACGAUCGUCAUGUAGCUGUUUUAAGAAAUCUGGCCCAGGGUGUUUGCAGCUGUGAGAAGUCACUCACACUGGCCACAAGGACGCUGGCUACUGUCUAUUAAAAUUCUGAUGUUUCUUGGAAUUCUCGGGUGCCAA | 0.413
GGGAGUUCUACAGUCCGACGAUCAUCUUGAAACAAAGUAAGAAUUCUGAUUCCCAAAAAUAACAAAUUUAAGUGUAUACUUUAGCAGGUGUGUACUAAUUACCAGUAACUUCAACACAAGCAAAGCAGGUUACUGGAAUUCUCGGGUGCCAA | 0.427
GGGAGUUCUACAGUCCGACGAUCUUAGUUACAUGCACAGAUGCAAUAUUUUCUUCAAAAAUAUAACUCUGUACAAACUUUGGGCCCGAUUCAUAAGAAAGAAGUUUGCUAUUAACACGGGAUUUUAAAAAAUAUGGAAUUCUCGGGUGCCAA | 0.389
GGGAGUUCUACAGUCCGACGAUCACAGGAUGCAACUAUUCCCAAUCCUUUCCAGAAUGUCACUCACUCCCUUGGGCUGUUGUGGGAAAAUAUGGAGGCUGGCACCAAAUUUCAUAGUUUGGGAGAUGGACAUUUGGAAUUCUCGGGUGCCAA | 0.518
